# Assay results collected from several papers.
# Parts stem from different laboratories: compare values within a part only. Substitutions count along the parent as printed.

# Block 1 — target: UBE2E2 UBC core domain (UniProt Q96LR5); method: yeast two-hybrid; medium: yeast; setting: mostly zero background; relative to: not given; direction: higher = stronger interaction
# Sequence of UniProt Q96LR5 (whole entry, looked up): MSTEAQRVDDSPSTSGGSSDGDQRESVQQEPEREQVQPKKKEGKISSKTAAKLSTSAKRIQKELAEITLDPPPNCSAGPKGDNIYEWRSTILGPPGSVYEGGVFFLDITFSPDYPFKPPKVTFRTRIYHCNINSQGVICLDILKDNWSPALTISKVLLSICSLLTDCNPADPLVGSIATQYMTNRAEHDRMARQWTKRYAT
# B1: MKRN1 RING domain (UniProt Q9UHC7); chain FAVQRSKDMVCGICMEVVYEKANPSERRFGILSNCNHTYCLKCIRKWRSAKQFESKIIKSCPECRITSNFVIPSE
# B2: RNF38 RING domain (UniProt Q9H0F5); chain PNNHQSEQTLCVVCMCDFESRQLLRVLPCNHEFHAKCVDKWLKANRTCPICRADASEVHRDS
# B3: TRIM24 RING domain (UniProt O15164); chain EAARLNLLDTCAVCHQNIQSRAPKLLPCLHSFCQRCLPAPQRYLMLPAPMLGSAETPPPVPAPGSPVSGSSPFATQVGVIRCPVCSQECAERHII
# B4: TRIML1 RING domain (UniProt Q8N9V2); chain LMENLREELTCFICLDYFSSPVTTECGHSFCLVCLLRSWEEHNTPLSCPECWRTLEGPHFQS
# B5: TRIM5 RING domain (UniProt Q9C035); chain LREVKLSPEGQKVDHCARHGEKLLLFCQEDGKVICWLCERSQEHRGHHTFLTEEVAREYQVKL
# B6: RNF111 RING domain (UniProt Q6ZNA4); chain EGTEEDTEEKCTICLSILEEGEDVRRLPCMHLFHQVCVDQWLITNKKCPICRVDIEAQLPSE
# B7: TRAF5 RING domain (UniProt O00463); chain FVERLEERYKCAFCHSVLHNPHQTGCGHRFCQHCILSLRELNTVPICPVDKEVIKSQEVFK
# B8: RC3H1 RING domain (UniProt Q5TC82); chain QAPQWTDFLSCPICTQTFDETIRKPISLGCGHTVCKMCLNKLHRKACPFDQTTINTDIELL
Sequence,lacZ reporter activity
B1 (MKRN1 RING domain),0
B2 (RNF38 RING domain),0
B3 (TRIM24 RING domain),0
QVDKAVFHMQSVKCLKCQEQKRAVLPCQHAALCELCAEGSECPICQPGRAHTLQS (UNK RING domain (UniProt Q9C0B0)),0
B4 (TRIML1 RING domain),0
FQGDVDEDLICPICSGVLEEPVQAPHCEHAFCNACITQWFSQQQTCPVDRSVVTVAHLRP (RNF41 RING domain (UniProt Q9H4P4)),0
B5 (TRIM5 RING domain),0
B6 (RNF111 RING domain),0
PAELEVQASECVVCLEREAQMIFLNCGHVCCCQQCCQPLRTCPLCRQDIAQRLRIY (LRSAM1 RING domain (UniProt Q6UWE0)),0
B7 (TRAF5 RING domain),0
GAAPGPEAAECLVCSELALLVLFSPCQHRTVCEECARRMKKCIRCQVVVSKKLRPD (MIB2 RING domain (UniProt Q96AX9)),0
B8 (RC3H1 RING domain),0

# Block 2 — method: protein-binding microarray; form: double-stranded DNA, one strand shown; medium: in vitro; concentration: 250 nM; setting: 60-bp whole probe; together with: salmon DNA 0.4 mg/ml; relative to: random background probes; direction: higher = stronger binding; constant ends, left off below: GCCTAGCAC … GTCTTGATTCGCTTGACGCTGCTG
# Target: Interferon regulatory factor 7, full length, phosphomimetic (IRF7, Homo sapiens, UniProt Q92985, residues 1-503, S101K/S471D/S472D/S475D/S476D/S477D/S483D/S484D/S487D)
# Residues (chain): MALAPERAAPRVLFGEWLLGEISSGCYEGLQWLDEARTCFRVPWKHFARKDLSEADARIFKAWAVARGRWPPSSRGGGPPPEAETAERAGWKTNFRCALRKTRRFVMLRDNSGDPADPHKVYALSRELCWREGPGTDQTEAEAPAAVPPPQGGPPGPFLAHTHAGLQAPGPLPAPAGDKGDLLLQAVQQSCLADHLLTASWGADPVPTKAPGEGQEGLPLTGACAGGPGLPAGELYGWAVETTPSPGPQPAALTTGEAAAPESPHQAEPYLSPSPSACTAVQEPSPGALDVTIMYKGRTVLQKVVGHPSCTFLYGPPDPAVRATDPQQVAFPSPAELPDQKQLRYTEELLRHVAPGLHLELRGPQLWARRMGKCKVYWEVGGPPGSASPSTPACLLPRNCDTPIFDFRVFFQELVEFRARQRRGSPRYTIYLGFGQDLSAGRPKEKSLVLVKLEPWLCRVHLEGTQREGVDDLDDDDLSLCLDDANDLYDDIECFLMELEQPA
Sequence,log fluorescence
CCGAAAATGCCCTTTTGGTGAGTGCTA,0.179 z-score
TCACCACTTTCTTTTGCACTGTGCTAG,0.738 z-score
TAAGGTCTCGGTTTCGGTTAGTGCTAG,11.6 z-score
GACGTTTTCCTTCTCCTGACGTGCTAG,1.82 z-score
TTAGAACTGAGGTTCGATTAGTGCTAG,0.827 z-score
TCAGATCTCAGTATCGATTAGTGCTAG,1.05 z-score
GACGATCTCAGTCTCGAGATGTGCTAG,0.537 z-score
TTTTCCAGAGGCCCAGCCAGGTGCTAG,1.64 z-score
GACGATTCCAGTATCGAGACGTGCTAG,0.441 z-score
TTAGAACTGAGTAACGATTAGTGCTAG,0.0671 z-score
GACGATTTCAGACTGGAGAAGTGCTAG,0.108 z-score
TCACATCTCTCTTAAATACTGTGCTAG,0.558 z-score
CTAGTTAAGGTACACCAGCAGTGCTAG,0.862 z-score
GACGGACCGGGGACTGGGGACGTGCTA,-0.557 z-score
TTAGGTTCCCTGTTCCTTTAGTGCTAG,1.28 z-score
TTGAGTCTTCTCCTCTAGGTGTGCTAG,-0.125 z-score
GACGGACTGGGGTTTTGGGACGTGCTA,-0.517 z-score

# Block 3 — method: DHFR PCA, deep sequencing; medium: yeast; together with: (+)-ABA 0 µM; relative to: wild-type fitted maximum; direction: higher = stronger binding
# Target: ABI1, truncated, D143A, DHFR fusion (Arabidopsis thaliana)
# Setting: methotrexate growth selection, single substitutions
# Starting sequence: PYL1, truncated, DHFR fusion (Arabidopsis thaliana); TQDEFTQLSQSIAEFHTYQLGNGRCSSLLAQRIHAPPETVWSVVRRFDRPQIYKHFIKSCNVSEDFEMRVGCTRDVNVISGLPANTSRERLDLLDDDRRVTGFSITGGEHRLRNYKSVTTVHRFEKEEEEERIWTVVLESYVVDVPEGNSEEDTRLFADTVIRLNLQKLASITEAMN
Variant,relative binding score
S117H,25.7%
R69A,18.9%
C60W,-6.34%
L138P,1.79%
L91I,18.6%
S9H,16.4%
R98Y,-2.08%
T86L,19.4%
D159H,-6.45%
E109C,-0.255%
E147A,11.7%
S9Y,18.7%
G21V,18.4%

# Block 4 — method: RNA Bind-n-Seq; form: RNA; medium: in vitro; concentration: 200 nM; setting: whole 134-nt RNA, ends assumed; together with: 150 mM KCl; relative to: input library; direction: higher = stronger binding
# Target: Fragile X messenger ribonucleoprotein 1, C-terminal low-complexity region (Fmr1, Mus musculus, UniProt P35922)
Sequence,log2 enrichment
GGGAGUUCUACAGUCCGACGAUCUCCUGUGCUACACAUCGUAUGUACCGAAUCGGGGAAAAAAGGAAAAAAGGAAAAAAGGGGAAAGUAUUAUGUUACGCCGUUCGGAUCUGCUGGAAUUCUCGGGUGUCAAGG,-0.33
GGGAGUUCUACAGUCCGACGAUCGCAGGAAGUAAAAACAAAUUGAAAUGCUUCGGAUAGUGGCAGGGGUGGGGGUUGCUAAGGAAAGGGUGGGAUGGGAGUGGGUAAAGAGUUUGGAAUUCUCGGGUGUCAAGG,0.426
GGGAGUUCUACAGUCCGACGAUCUGUGCUACACAUCGUAUGUACCGAAUCGGGGAAAAAGGGGUUUUUUUGGGGUUUUUUUGGGGAAAGUAUUAUGUUACGCCGUUCGGAUCUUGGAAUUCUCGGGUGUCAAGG,0.319
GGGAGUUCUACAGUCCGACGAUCUGGCCCUGGUGGCAUGCGGGGAGGAAGAGGUGGCCUCAUGGAUCGUGGUGGUCCCGGUGGAAUGUUCAGAGGGGGCCGUGGUGGAGACAGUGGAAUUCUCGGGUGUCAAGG,-0.23
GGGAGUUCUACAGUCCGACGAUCUUCCUCAAGUCCUGUGCUACACAUCGUAUGUACCGAAUCGGCGGCGGCGGAAAGUAUUAUGUUACGCCGUUCGGAUCUGCACUUCCAGCAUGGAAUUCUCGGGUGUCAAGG,-0.0726
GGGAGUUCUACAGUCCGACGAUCUCCAGCCACUCACCGGCGAUCCAGGUCCAGAACCCCCCUGAUAAGCCGACGUAGGUCCAGAUCUCGAACUUCACCAGUCAGCCGGAGACGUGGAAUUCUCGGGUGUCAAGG,0.418
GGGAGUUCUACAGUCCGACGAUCUAACUUUAGAGGAGGAUCUGAUGGAUAUGGCAGAGGACGUGGAUUUGGGGAUGGCUAUAAUGGGUAUGGAGGAGGACCUGGAGGUGGCAAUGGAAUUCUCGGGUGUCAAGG,0.363
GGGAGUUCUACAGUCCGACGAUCAAGUCCUGUGCUACACAUCGUAUGUACCGAAUCGGGAGGGUUUUUUUGGGAAAGGGAAAGUAUUAUGUUACGCCGUUCGGAUCUGCACUUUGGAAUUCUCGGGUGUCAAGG,0.438
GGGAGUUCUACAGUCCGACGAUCGUCCUGUGCUACACAUCGUAUGUACCGAAUCGGAAAAAGGGAAAAAGGGGAAAAAGGGGAAAGUAUUAUGUUACGCCGUUCGGAUCUGCAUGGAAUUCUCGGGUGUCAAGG,0.0383
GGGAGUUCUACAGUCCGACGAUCCUGUGCUACACAUCGUAUGUACCGAAUCGGGUUUUUUUGGGGUUUUUUUGGUUUUUUUGGGAAAGUAUUAUGUUACGCCGUUCGGAUCUGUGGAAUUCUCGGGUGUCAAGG,-0.775
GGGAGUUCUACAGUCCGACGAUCGCAGGAAGUAAAAACAAAGGGAAAUGCUUCGGAUAGUGGCAGGGGUGGGGGUUGCUAAGGAAAGGGUGGGAUGGGAGUGGGUAAAGAGUUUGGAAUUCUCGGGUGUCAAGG,0.687
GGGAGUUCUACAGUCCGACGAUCCCUGUGCUACACAUCGUAUGUACCGAAUCGGGGAAAAAAGGGGAAAAAAGGGAAAAAAGGAAAGUAUUAUGUUACGCCGUUCGGAUCUGCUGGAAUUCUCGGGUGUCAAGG,-0.365
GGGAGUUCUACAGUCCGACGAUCAAAUGGUAGUGUGCGGAGUUUUUUUUUCUUCCUUCUUUUAAAAAUGGUUGUUUAAGACUUUAACAAUGGGAACCCCUUGUGAGCAUGCUCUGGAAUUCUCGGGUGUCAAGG,-1.1
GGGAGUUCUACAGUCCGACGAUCAAGUCCUGUGCUACACAUCGUAUGUACCGAAUCGGGUGGGAAAAAGGGAAAAAGGGAAAGUAUUAUGUUACGCCGUUCGGAUCUGCACUUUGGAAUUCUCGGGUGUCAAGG,0.382

# Block 5 — target: MAFG, bZIP domain (human); method: DHFR protein complementation; medium: yeast; relative to: wild-type JUN-FOS pair; direction: higher = stronger binding
# Setting: single substitutions, most at no-binding floor
# Starting sequence: JUN, bZIP domain (human); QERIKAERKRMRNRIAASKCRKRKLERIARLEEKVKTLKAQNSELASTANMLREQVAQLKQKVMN; partner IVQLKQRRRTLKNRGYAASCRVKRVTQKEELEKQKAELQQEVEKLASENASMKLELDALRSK
Variant,binding fitness
S47L,-1.5 natural log
V56L,-1.43 natural log
A46W,-1.5 natural log
S47W,-1.46 natural log
E32L,-1.4 natural log
R30C,-1.51 natural log
K34P,-1.52 natural log
A49P,-1.42 natural log
E32N,-1.55 natural log
V56K,-1.4 natural log
E44M,-1.49 natural log
K39Y,-1.57 natural log
A29G,-1.4 natural log
E44V,-1.45 natural log
M51L,-1.46 natural log
R53G,-1.57 natural log
A57Y,-1.17 natural log
T48M,-1.43 natural log

# Block 6 — target: CCNE1, cyclin fold, Cln2 fusion (human); method: yeast growth competition, sequencing; medium: yeast; setting: weak parent motif; relative to: not given; direction: higher = stronger binding
# Starting sequence: SGO1 docking peptide (human); PLAKRALKYTDEK
Variant,normalised enrichment score
K4A,0.0927
D11A,-0.00444
K8A,0.52
L7A,0.373
L2A,0.377

# Block 7 — method: universal PBM; form: double-stranded DNA, one strand shown; medium: in vitro; concentration: 600 nM; direction: higher = stronger binding
# Target: Sal-like protein 4, full length isoform A (SALL4, Homo sapiens, UniProt Q9UJQ4, residues 1-1053)
# Sequence of UniProt Q9UJQ4 (whole entry, looked up): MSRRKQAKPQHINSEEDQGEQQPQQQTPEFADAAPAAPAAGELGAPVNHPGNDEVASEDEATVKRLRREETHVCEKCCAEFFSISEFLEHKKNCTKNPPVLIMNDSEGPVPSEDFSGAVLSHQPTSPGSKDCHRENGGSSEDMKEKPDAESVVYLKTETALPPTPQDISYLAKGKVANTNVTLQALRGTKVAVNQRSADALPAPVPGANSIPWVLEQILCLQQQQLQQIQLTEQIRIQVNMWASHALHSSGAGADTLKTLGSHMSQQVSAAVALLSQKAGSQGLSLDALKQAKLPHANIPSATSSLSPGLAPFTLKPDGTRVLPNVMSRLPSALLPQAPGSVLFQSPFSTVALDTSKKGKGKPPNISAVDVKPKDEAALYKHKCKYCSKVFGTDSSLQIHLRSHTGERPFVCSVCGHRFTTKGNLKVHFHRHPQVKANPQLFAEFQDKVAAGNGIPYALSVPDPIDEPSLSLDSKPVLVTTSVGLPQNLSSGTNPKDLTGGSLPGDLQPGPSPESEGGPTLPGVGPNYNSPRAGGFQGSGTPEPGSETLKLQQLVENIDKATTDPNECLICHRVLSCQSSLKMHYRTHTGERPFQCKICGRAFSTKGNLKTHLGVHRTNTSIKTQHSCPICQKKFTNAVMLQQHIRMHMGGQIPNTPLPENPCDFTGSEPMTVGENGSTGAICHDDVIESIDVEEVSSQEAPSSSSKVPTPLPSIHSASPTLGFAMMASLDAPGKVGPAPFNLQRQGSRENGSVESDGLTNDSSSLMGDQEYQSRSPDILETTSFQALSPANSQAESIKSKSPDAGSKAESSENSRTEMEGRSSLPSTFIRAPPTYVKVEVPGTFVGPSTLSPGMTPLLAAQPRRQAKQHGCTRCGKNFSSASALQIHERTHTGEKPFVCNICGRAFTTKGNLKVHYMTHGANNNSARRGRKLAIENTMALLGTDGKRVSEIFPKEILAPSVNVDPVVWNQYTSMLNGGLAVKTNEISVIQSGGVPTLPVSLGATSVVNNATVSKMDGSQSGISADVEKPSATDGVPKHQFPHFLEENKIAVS
# Setting: 8-mer, flanks averaged, mean of replicates
Sequence,E-score
AACTGCGC,-0.125
CGTCAAGC,-0.16
CGCCAGCA,-0.269
GTTGTACA,0.193
CAACGCAC,-0.157
CAGTGAGG,-0.214
CGTTGCGA,-0.0993
GCCGCCCA,-0.435
ATGTGCGC,-0.0561
CCGCGAGG,-0.347
GGGACACC,-0.338
CCAAGGAG,-0.179
CGATTTTA,0.203
CCCAGTCG,-0.3
CTTCGTAC,-0.00246
CAATACGA,0.198
CTCCATCC,-0.154
GGCTGAAC,-0.236
AAAGAGGC,-0.17
AGGAATTG,0.157
TATTACGA,0.342
ATGCGATC,-0.00351
AAGGGCTG,-0.234
CCACTGGC,-0.259

# Some of these lines once more (block 3):
Variant,relative binding score
R69A,18.9%
C60W,-6.34%
L138P,1.79%
L91I,18.6%
S9H,16.4%
R98Y,-2.08%
T86L,19.4%
D159H,-6.45%
E109C,-0.255%
E147A,11.7%
S9Y,18.7%
G21V,18.4%
